Published values of several laboratories.
A part holds a random share of what one study measured. Changes are numbered by the printed parent chain.

Sample 1
Target: Interferon regulatory factor 3, full length, phosphomimetic (IRF3, Homo sapiens, UniProt Q14653, residues 1-427, S386D/S396D/S398D/S402D/T404D/S405D)
UniProt Q14653, sequence (whole entry, unmodified, looked up): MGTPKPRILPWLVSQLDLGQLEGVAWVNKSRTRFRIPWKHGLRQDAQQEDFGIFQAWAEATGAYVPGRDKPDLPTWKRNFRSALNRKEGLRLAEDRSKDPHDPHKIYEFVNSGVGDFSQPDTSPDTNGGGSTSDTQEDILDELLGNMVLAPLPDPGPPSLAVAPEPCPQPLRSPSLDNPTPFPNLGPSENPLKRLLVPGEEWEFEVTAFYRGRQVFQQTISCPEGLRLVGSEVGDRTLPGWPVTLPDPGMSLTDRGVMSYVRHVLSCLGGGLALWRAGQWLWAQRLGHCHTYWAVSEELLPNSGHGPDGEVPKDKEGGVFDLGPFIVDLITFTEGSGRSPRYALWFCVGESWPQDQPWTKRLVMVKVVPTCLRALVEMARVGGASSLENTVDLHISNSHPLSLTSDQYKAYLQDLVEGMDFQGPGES
Method: protein-binding microarray
Form: double-stranded DNA, one strand shown
Medium: in vitro
Tested at: 2540 nM top
Setting: 60-bp whole probe
Added: salmon DNA 0.4 mg/ml
Relative to: random background probes
Direction: higher = stronger binding
Constant ends, left off below: GCCTAGCAC … GTCTTGATTCGCTTGACGCTGCTG
Sequence	fitted relative affinity [z-score]
TCTTTTCTGTTGTCTGTGTTTGTGCTA	2.33
GACTATCTCAGTATCGAGACGTGCTAG	0.938
GACGGTCTGGGGTTTCGGGACGTGCTA	0.553
GACGGTATCCTTTTTCTGACGTGCTAG	7.38
GACGACATCGGGTTTCGAGACGTGCTA	0.38
GACGATATCGGGTATCGAGACGTGCTA	0.241
GACGGTATCAGGACTGGGGACGTGCTA	1.87
ACTGCTCTGTTGCCTGGTCCTGTGCTA	-0.105
TTAGGTCTCGACACTGGGTTAGTGCTA	-0.697
GAGGGTATCGACTATCGGGACGTGCTA	-0.294
GCTTCTACACAGAGCATGGGGTGCTAG	-0.0451
CCAGCTCTTTCGTTACTTCCTGTGCTA	1.29
GACGGTTTCGGGTATAGGGACGTGCTA	4.23
TCAATTTTGTGTTTTCAACTGTGCTAG	0.675
GACGGTATCGGTATCGGGATGTGCTAG	4.7
GCTTTTATGGTATTTTTTTCGTGCTAG	0.719
AGGGCGGCTGAGTCAGCACAGTGCTAG	-1.11
AGTAGCTGGGATTACAGGCAGTGCTAG	-0.827
GACGGTCTCGGGTTTCGGGACGTGCTA	1.37
TTAGGTTCCGGTTTCTGTTAGTGCTAG	5.98
GACGAACTGAGACTGGTGACGTGCTAG	-0.246
TCAGCTTTTTAGATCGTACTGTGCTAG	0.566
TTTGGTTTCGGGTTTCGGTTAGTGCTA	6.86

Sample 2
Target: RNA binding protein fox-1 homolog 2, RRM domain, GST-SBP tag (RBFOX2, Homo sapiens, UniProt O43251-10, residues 100-194)
Method: RNA Bind-n-Seq
Form: RNA
Medium: in vitro
Tested at: 365 nM
Setting: natural RNA segment, single round, ends assumed
Relative to: no-protein control
Direction: higher = stronger binding
Constant ends, left off below: GGGAGUUCUACAGUCCGACGAUC … UGGAAUUCUCGGGUGCCAA
Construct (chain): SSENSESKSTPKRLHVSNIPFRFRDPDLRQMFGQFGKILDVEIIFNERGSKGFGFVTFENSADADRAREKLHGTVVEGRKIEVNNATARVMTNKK
Sequence	RBNS enrichment (R)
GCUCCUCUGCCACCCGUGACCCCGUGACGUGAUGGGGCCAGGUAACGGGCCGGGCAGUGGUGAGGUCACUGUGAAUGGAGGUUUGUUUCCCAUGAGAUCGGACACUGUCC	0.693
UGGGCCUGCUGUCUGCGCCUUUCGUAGUGACAGAUGUGGCUGUAGUGUUUAGGUGUUUGGUCUUGCUUCUUGUAUGGCAUUUUUCAAUAAACUUUAAAAAAAAAAAAAAA	1.44
AAGCAUCUUCAGUGCUCACAAUCAUGUGUCCCCUAGCCUCACCCCUGCAGUUCAGGCCUGUUUCUGUCAGAGUCAGGAACAUCUCUGAAUUAUGGAACAUUGUCUGUACC	0.266
UUUUUUAAAGAGAGAGAGAAAAGAGAAAAAAGCUUUUAUUUCCUUGGAUCUCAUUAUCAGAAAUAUUAUUCAGCUCAAGAAAUCUGACCCCAUAUUGGAAAAUGAAUGUC	0.943
CCUCACAGCCCGACACGCCCUGCUGAGGCAGACGAAUGACAUUAAGUUCUGAAGCAGAGUGGAGAUAGAUUAGUGACUAGAUUUCCAAAAAGAAGGAAAAAAAAGGCUGC	3.27
CCAAUGAUGACCUGACCAUGCCUGCCUGCUGAUCAGUUAACUGGUAAUCGCCUUUGCUUGCCUGUCGUCAGUGCAGCGAGCUGAGGCACUUGUCCGUUCGUCUUACCAUC	0.417
CACUAGAUUGCCUGUCCCGACUCAUUGAAGUGCUCCCCAGGGAGCCACUUCUGAUUUGCCAUGGUUGACAGCAUAGUGGAAGAUAGAUAUGACAGCGCUUUGUAAAGCAG	0.261
GUCACUGUGCCCAGCAGGGUGGGCUGUGCCCAGCAGGAGUCAGGCUAAGAAACGCCAGGUCUGCCUGUUCUUGCUGGGCAAUGGCUGAUGGCUGCCAGUUUCUGCUGAUA	0.492
UCAGUCUAGCUUUUAAUUAAGUUAUUUUGUAUAGCUUAAUUUGUAAAACAUUUUAUGUUUUUUAGAUGCUUUAUUAAAUACAUGGCCAAACCAAAUAACAUCUUUCAGUA	0.753
UGUUUUGUUUUGUUUUUCAAGACAGGGUUUCUCUGUAUAGCCCUGGAUGUCCUGGGACUCACUCUGUAAACCAAGCUGGCCUCAAACUCAGAAAUCCGCCUGCCUCUGCC	0.647
CAAGCUACCACGUGCACAGACAGCCCAAUGAGUGGGCCAUUUCUCCACAACCCUGGUGUAAUACAGAGUCCAGCCAUUACCAUUCUCCUGCGUUACUUUGACAUGGGAUU	0.3
CCACUGUGGUGGCAGUGGAGGUGGGGUGUUUGGGAGGCUGCGUGCCAGUCAAGAAGAAAAAGGUUUGCAUUCUCACAUUGCCAGGAUGAUAAGUUCCUUUCCUUUUCUUU	0.732

Sample 3
Target: RING finger protein unkempt homolog, zinc fingers 1-6, GST-SBP tag (UNK, Homo sapiens, UniProt Q9C0B0, residues 30-357)
UniProt Q9C0B0, sequence (30-357, looked up): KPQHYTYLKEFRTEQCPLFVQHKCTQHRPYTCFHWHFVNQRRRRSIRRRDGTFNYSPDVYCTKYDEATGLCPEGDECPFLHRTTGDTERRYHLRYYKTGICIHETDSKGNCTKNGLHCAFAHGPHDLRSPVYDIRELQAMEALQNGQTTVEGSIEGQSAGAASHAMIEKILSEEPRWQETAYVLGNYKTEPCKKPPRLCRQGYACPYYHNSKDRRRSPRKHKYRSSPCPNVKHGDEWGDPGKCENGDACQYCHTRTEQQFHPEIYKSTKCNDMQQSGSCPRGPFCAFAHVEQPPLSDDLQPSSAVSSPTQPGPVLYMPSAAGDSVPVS
Method: RNA Bind-n-Seq
Form: RNA
Medium: in vitro
Tested at: not given
Setting: RNA with constant flanks, human and mouse sites, ends assumed
Relative to: input RNA pool
Direction: higher = stronger binding
Constant ends, left off below: GGGAGUUCUACAGUCCGACGAUC … CAACAGAGGAUUGAGCAUCA
Sequence	bound/input enrichment [ratio]
GUUCAGCUCCACCAGAUGGCUGUGAUAGGGCAGCAGGCCGGGAGCAGCAGCAACCUCACCGAGCUACAGGUGGUGAACCUGGACACCGCCCACAGCACCAAGAGUGAAUGAUCCGCCCGC	0.184
CGGCCGAGUUCAGUGUCCCUUGUUCAGGGCUCUUGAUAAUGUUUGACCCAGUGGCAACACUAGUAGACGACCUGAUUUUAAAGCUGACCUCAGCCUCUGCAUCUUCUCUCGAGUAGUCCC	0.135
CCCCUCCCCUCUAUCCAGGGGCAGGUCCCAGGGGCUUUCUACUUCCAGUUGCCAAUUGUGUUGCUUUCUAUUUGUUGAAAAUGUACGUUUAAAUUUAAAAUCACUUUUUUAAACAGAAGA	0.175
AGGACAUCGAGACCCCGGGGCUGCCGCGCCCCCUCUCCCUUCGCAGCCUGGCCCGGCUGCACGGUGGCGGUCCUGAGCCCCCGCCUCCGCCCAAGGAUGGAGAUGCAGCGCAAACGCCCC	0.138
AAGUUUGAGAAUAUUCAUACUAAUAAUAAACCCGGCUUACUUGGAGAGCCCCCAGCUGUGGUACUUCAGACUGCACUAGGGAUAGGGUCAGUGCUUCCAUUGAAAAAGGAGUUGGGACAU	0.559
CUUCGGGUUUCUGAGACUGUGGCAUUCACUGACGUGAAUUCAAUCCUGCGCUACCUGGCUAGAAUUGCAACUACGUCUGGGCUGUAUGGGACUAACCUGAUGGAGCACACUGAGAUUGAU	1.02
CAGAUUGGGAAAAUGAGGUACGUUAGUGUUCGCGAUUUUAAAGGCAAAGUGCUAAUUGAUAUUAGAGAAUAUUGGAUGGAUCCUGAAGGUGAAAUGAAACCAGGAAGAAAAGGUAUUUCU	0.585
GGAGCUGCGGGAACCGGACUCCGGGCGGGUUGGACUGCUGGAGUCAAUGAGAGAAGCUUUUAGGUUAAUUUGAAUAUAAGAUCAGAUCUGAUUGGCCCACCUGGACACCCCUUCAAGGAA	0.653
CUUUUGAUUUCUUUUUCUUUUUUUCUCUUCUUGUUUUUGUUUUUCUUUUUUGUUUGUUUUUUUAGCAUGCAAAUAUGUUGGUACGUUAUGUCCUGGUUUAAAAGGAUUAAAAAUUUAAAA	1.13
CGGCUGUCUCCCUCGGCAGCCACCCCAUUCUUCCUGCUGUCCGGCCUGUGUGCUUUCUUUUUUUAUUUCAAACGGACAUUGUAAAAGAAAACAAACUACCUUCUGUUCUAAAGGAUACUG	0.43
GCUGUGCUGGGAAACCAGAUUUUUAUCAUGGGUGGAGAUACAGAGUUCUCUGCCUGCUCCGCUUACAAAUUCAAUAGUGAGACUUACCAGUGGACCAAGGUGGGAGAUGUGACAGCCAAG	0.414

Sample 4
Target: Histone acetyltransferase KAT6A, winged helix 1, GST fusion (KAT6A, Homo sapiens, UniProt Q92794, residues 1-85)
Method: protein binding microarray
Form: double-stranded DNA, one strand shown
Medium: in vitro
Tested at: not given
Setting: 8-mer, flanks averaged, mean of 2 arrays, mostly near background
Relative to: not given
Direction: higher = stronger binding
Target sequence (chain): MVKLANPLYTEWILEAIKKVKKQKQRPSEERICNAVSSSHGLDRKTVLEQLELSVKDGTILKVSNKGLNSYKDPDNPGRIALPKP
Sequence	E-score
CACGGTTC	-0.18
CTCAAGGA	-0.178
CGGAATCA	0.0971
AATCTTAG	-0.0771
GGTACTAA	-0.0192
CGTATATA	0.0429
GGAACTAC	-0.0243
GGGCTAGA	-0.024
AGCGAAGG	0.046
ACCGGTGC	0.17
ATTTATGA	-0.154
CATTTGCG	0.116
ACCCTAGG	-0.237
GACCGCAA	0.173
ATTACACA	-0.00895
ACACCGGA	0.1
CAACCACA	-0.189
ATCGCTCG	0.147

Sample 5
Target: ABI1, truncated, D143A, DHFR fusion (Arabidopsis thaliana)
Method: DHFR PCA, deep sequencing
Medium: yeast
Setting: methotrexate growth selection, single substitutions
Added: (+)-ABA 200 µM
Relative to: wild-type fitted maximum
Direction: higher = stronger binding
Parent: PYL1, truncated, DHFR fusion (Arabidopsis thaliana); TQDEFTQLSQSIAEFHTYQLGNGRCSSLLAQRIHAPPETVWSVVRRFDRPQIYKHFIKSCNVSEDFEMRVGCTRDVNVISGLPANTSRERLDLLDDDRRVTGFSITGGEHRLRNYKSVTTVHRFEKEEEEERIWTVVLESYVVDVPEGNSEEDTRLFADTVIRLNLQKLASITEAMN
Substitution	relative binding score [%]
V44M	71
G148M	77
G21D	96.9
I52L	100
F124Y	109
N177M	116
F15R	65.4
S27F	35.1
R88Q	103
S11W	95.6
L82R	9.62
D3T	101
R74K	1.08
V161S	1.29
S140G	24.9
T73E	103
H16V	-7.8
Q19R	100
V100Q	63.1

For quick reference, copied from above (sample 1):
Sequence	fitted relative affinity [z-score]
GCTTTTATGGTATTTTTTTCGTGCTAG	0.719
AGGGCGGCTGAGTCAGCACAGTGCTAG	-1.11
AGTAGCTGGGATTACAGGCAGTGCTAG	-0.827
GACGGTCTCGGGTTTCGGGACGTGCTA	1.37
TTAGGTTCCGGTTTCTGTTAGTGCTAG	5.98
